Assay results collected from several papers.
Protocols differ between the studies behind these lines. “And” joins repeats or separate records; there may be more than shown. Numbers after ± are the reported error.

For `CS(=O)(=O)CCNCc1ccc(-c2ccc3ncnc(Nc4ccc(OCc5cccc(F)c5)c(Cl)c4)c3c2)o1`, the ED50 was 79.6 mg/kg (tumour growth; A-431 xenograft, mouse; oral, daily, 11 days).
For `C=C1CC[C@H](OCCCNC(=O)CCOCCOCCOCCOCCOCCOCCOCCOCCOCCOCCOCCOCCOCCOCCOCCOCCOCCOCCOCCOCCOCCOCCOCCOCCOCCOCCOCCOCCOCCOCCOCCOCCOCCOCCOCCOCCNC(=O)CCN2C(=O)CC(SC[C@H](NC(=O)[C@H](CCCNC(=N)N)NC(=O)[C@@H]3CCCN3C(=O)[C@H](CCC(N)=O)NC(=O)[C@H](CC(C)C)NC(=O)[C@H](CCCCN)NC(=O)[C@H](C)NC(=O)[C@@H]3CCCN3C(=O)[C@@H]3CCCN3C(=O)[C@H](CCCCN)NC(=O)[C@H](CCCCN)NC(=O)[C@H](CO)NC(=O)[C@H](CCC(=O)O)NC(=O)[C@H](CCCCN)NC(=O)[C@H](CCCNC(=N)N)NC(=O)[C@H](CCC(N)=O)NC(=O)[C@H](CCC(N)=O)NC(=O)[C@@H](NC(=O)[C@H](CCCNC(=N)N)NC(=O)[C@H](CCC(N)=O)NC(=O)[C@H](Cc3c[nH]cn3)NC(=O)[C@H](CCC(=O)O)NC(=O)[C@@H]3CCCN3C(=O)[C@H](CO)NC(=O)[C@H](CC(C)C)NC(=O)[C@H](Cc3ccccc3)NC(=O)[C@H](CNC(=O)CCCCCCC)NC(=O)[C@H](CO)NC(=O)CN)C(C)C)C(=O)O)C2=O)C/C1=C/C=C1\CCC[C@]2(C)[C@@H]([C@H](C)CCCC(C)(C)O)CC[C@@H]12` (stereo partly drawn), “food intake decrease” read 6% (C57BL/6J mice, LLC tumour-induced cachexia; subcutaneous, 0.5 mg/kg every other day, 2 weeks; reference: tumour-bearing vehicle).
For `C[C@@H](NC(=O)N1C(=O)[C@H](Cc2ccnc(N)c2)[C@H]1C(=O)O)C1CCCCC1`, the aPTT AUEC was 220 (human; iv infusion, 2.25 mg/kg/h, 24 h, unit not given; reference: baseline).
For `O=C(O)/C=C/c1ccc(Cn2ccnc2)cc1`, the APTT was 23.3 s (rat, MCAO/R model, plasma; intravenous, dose not given, 4 h).
The T/C ratio of `Cn1nnc2c(C(N)=O)ncn2c1=O` is reported as 42% (mouse subcutaneous GBM PDX sample D; subcutaneous, dose not given).
`N#Cc1ccc(C(c2ccc(C#N)cc2)n2cncn2)cc1` gave an estradiol concentration of 793 ± 74.1 pg/mL (ELISA; human patients, tumour homogenate; 5 mg daily).
For `OC(CCN1CCCCC1)(c1ccccc1)C1CC2C=CC1C2` (stereo not drawn), “EEG theta power, O1 Pz” read 5 µV² (resting-state EEG; healthy elderly humans; oral, 2 mg, eyes open, LS mean).
`COc1nnc2ccc(N3CCC(c4ccc(OCCN5CCN(C)C(=O)[C@H]5C)cc4)CC3)nn12` — result for “time above HEXIM1 threshold”: 3.77 h (human patients; 15 mg twice daily, 2-fold above baseline).
`CC1(C)CCC2(CC1)N[C@@H](C(=O)N[C@@H]1CC[C@@H](C(N)=O)OC1)[C@H](c1ccnc(Cl)c1F)[C@]21C(=O)Nc2cc(Cl)ccc21` has a progressive disease of 31.3% (RECIST; patients with solid tumours; dose not given; reference: patients).
The p-PKA level of `COc1ccc2c(c1)CC[C@@H]1[C@@H]2CC[C@]2(C)[C@@H](NCCCCCCN3C(=O)C=CC3=O)CC[C@@H]12` is reported as 38.9 MFI and 46.5 MFI and 42.6 MFI (immunostaining; humanized mouse, SAH model, meninges; dose not given).
Under “food intake increase”, `CCCCCCCC(=O)OC[C@H](NC(=O)[C@H](CO)NC(=O)CN)C(=O)N[C@@H](Cc1ccccc1)C(=O)N[C@@H](CC(C)C)C(=O)N[C@@H](CO)C(=O)N1CCC[C@H]1C(=O)N[C@@H](CCC(=O)O)C(=O)N[C@@H](Cc1c[nH]cn1)C(=O)N[C@@H](CCC(N)=O)C(=O)N[C@@H](CCCNC(=N)N)C(=O)N[C@H](C(=O)N[C@@H](CCC(N)=O)C(=O)N[C@@H](CCC(N)=O)C(=O)N[C@@H](CCCNC(=N)N)C(=O)N[C@@H](CCCCN)C(=O)N[C@@H](CCC(=O)O)C(=O)N[C@@H](CO)C(=O)N[C@@H](CCCCN)C(=O)N[C@@H](CCCCN)C(=O)N1CCC[C@H]1C(=O)N1CCC[C@H]1C(=O)N[C@@H](C)C(=O)N[C@@H](CCCCN)C(=O)N[C@@H](CC(C)C)C(=O)N[C@@H](CCC(N)=O)C(=O)N1CCC[C@H]1C(=O)N[C@@H](CCCNC(=N)N)C(=O)O)C(C)C` is recorded as ~175% (C57BL/6N mice, male; subcutaneous, 2 mg/kg, 1 h, standard chow; reference: saline).
`CC(=O)Oc1cc2c(s1)CCN(C(C(=O)C1CC1)c1ccccc1F)C2` (stereo not drawn) — result for “patients with IPA above 80%”: 0% (light transmittance aggregometry; human patients, platelet-rich plasma; dose not given, 1 h, together with: ADP 20 µM; reference: patients).
For `NC/C(=C\F)COc1cccc(Cn2c(=S)[nH]c(=O)c3[nH]cnc32)c1`, the fibrosis area was 1.06% and 1.05% and 0.8% and 0.99% and 1.22% and 1.92% (mouse, unilateral ureteral obstruction, right kidney (control); dose not given).
For `CCN(Cc1nc2c(N)nc3cc(-c4cc[nH]n4)ccc3c2[nH]1)C(C)=O`, the fold change was 6.6 (Luminex, item: IL-1β; cancer patients, serum; 2000 µg monotherapy, first 24 h; reference: baseline).
Under “patients with inhibition above threshold”, `CSCCNc1nc(SCCC(F)(F)F)nc2c1ncn2[C@@H]1O[C@H](COP(=O)(O)OP(=O)(O)C(Cl)(Cl)P(=O)(O)O)[C@@H](O)[C@H]1O` is recorded as 7.5% (platelet aggregation, light transmission aggregometry; human patients, platelet-rich plasma; dose not given, 30 min, inhibition threshold 90%, together with: ADP 5 µM).
`O=C1Nc2cc3[nH]nc(-c4ccncc4)c3cc2CN1Cc1ccccc1`: “complete response, best response” 0% (RECIST v1.1; human, relapsed or refractory advanced solid tumours; intravenous, 1.8 mg/kg, pooled schedules).
For `NC(=O)c1cnc2[nH]ccc2c1N[C@@H]1[C@@H]2CC3C[C@H]1C[C@@](O)(C3)C2`, “change from baseline” read 0.08% (flow cytometry, item: CD4+ effector memory T cells; Japanese healthy subjects, peripheral blood; oral, 30 mg twice daily, day 4).
`N#Cc1ccc2c(-c3ccncc3)c(-c3ccc(F)cc3)nn2c1` — result for “log2 fold change”: 0.225 (kinase binding, competitor, MIB/MS competition, item: ENV7; Candida albicans cell lysate; 1 µM; reference: DMSO).
With `CC#Cc1cncc(-c2ccc3c(c2)[C@@]2(N=C(C)C(N)=N2)[C@]2(CC[C@H](OC)CC2)C3)c1` the IC50 was 0.8 nM (brain Aβ40 reduction; beagle dog; oral, free brain concentration basis).
`O=C1N(Cc2ccccc2Cl)c2ccccc2C12NN=C(c1ccccc1)S2` (stereo not drawn) gave a T/C of 72% (SK-BR-3 xenograft, mouse; intravenous, 864 mg/kg, subcutaneous xenograft; reference: vehicle).
`c1ccc(-c2n[nH]cc2-c2ccnc3ccccc23)nc1` — result for “log2 fold change”: 1.64 (kinase binding, competitor, MIB/MS competition, item: TPK2; Candida albicans cell lysate; 10 µM; reference: DMSO).
`COc1nc(-c2cc(C)c(N[C@@H](C)c3cc(F)cc(F)c3)nn2)ccc1-n1cnc(C)c1` — result for “change in level”: 66% (item: Aβ40; rat Sprague-Dawley male, brain; oral, 25 mg/kg daily for 9 days, 4 h after dose; reference: vehicle).
Under “log2 fold change”, `N#Cc1ccn2c(-c3ccncc3)c(-c3ccc(F)cc3)nc2c1` is recorded as -0.233 (kinase binding, competitor, MIB/MS competition, item: RCK2; Candida albicans cell lysate; 100 nM; reference: DMSO).
`CC(C)[C@H](C(=O)Nc1ccc(C(=O)NO)cc1)c1ccccc1` has a tumour volume of 0.0707 cm3 (volumetric MRI; human, right C1 intradural meningioma; dose not given, day 64).
Under “change in CSF level”, `Cc1cn(-c2ccc3n(c2=O)CCN([C@@H](C)[C@@H]2CC[C@H](c4cc(F)c(Cl)cc4C(F)(F)F)O2)C3=O)cn1` is recorded as -16.1% (item: Aβ40; human, cerebrospinal fluid; 150 mg single dose, Tmax; reference: placebo-adjusted baseline).
`O=C(O)CNC(=O)Cc1ccccc1` gave a sarcomere length of 1.71 µm (ventricular cardiomyocytes, C57BL/6 mouse; dose not given, 0.124 s).
`O[C@H]1CCCN[C@@H]1CCCn1cnc2c(Cl)c(Cl)ccc21` has an AUC(0-tau) of 119 ng·h/mL (ELISA, item: Pro-C3; healthy human volunteers, serum; intraduodenal, 25 mg twice daily, day 14, multiple ascending dose).
`Cc1ccc([C@@H]2O[C@H](CO)[C@@H](O)[C@H](O)[C@H]2O)cc1Cc1ccc(-c2ccc(F)cc2)s1` — result for “change, mean 24 h, plasma glucose”: -29 mg/dL (Japanese type 2 diabetes patients; 100 mg, day 16; reference: day 0).
`Cc1cc([C@H]2C[C@H]3[C@@H](CF)SC(N)=N[C@@]3(c3ccc(F)cc3F)CO2)on1`: “brain Aβ40 level” 1.51 ng/g (item: Aβx-40; wild-type mouse, brain; subcutaneous, 100 mg/kg, 5 h).
`O=C(COc1ccc(Cl)cc1)NC12CC(c3nnc([C@H]4C[C@@H](OC(F)(F)F)C4)o3)(C1)C2` — result for “CHAC1 mRNA change”: -58.1% (healthy human, PBMC; oral, 400 mg single dose, day 2, 24 h post-dose, median, together with: sodium arsenite ex vivo; reference: baseline).
For `[Cl-].[Cl-].[Pt+2].[Ru+2].c1ccc(-c2nc3ccccc3nc2-c2ccccn2)nc1.c1cnc2c(c1)ccc1cccnc12.c1cnc2c(c1)ccc1cccnc12`, “negative activation entropy” read 159 ± 9 J/(mol·K) (chloride substitution, UV-vis kinetics; aqueous buffer; concentration not given, pH 7.2, first substitution step, together with: guanosine 5'-monophosphate).
For `COc1ccc(-c2cncc(N[C@@H](C)c3cccc(NC(=O)c4cncc(C)c4)c3)n2)cc1OC`, “delta delta Ct” read -0.599 (item: rno-miR-212-3p; rat SU5416/hypoxia model, lung; dose not given, unit not given; reference: SU5416/hypoxia vehicle).
Under “stopping or switching”, `O=C1CCc2ccc(OCCCCN3CCN(c4cccc(Cl)c4Cl)CC3)cc2N1` is recorded as 50% (patients CYP2D6 UM; 12 months).
For `CC[C@@H]1[C@H](F)C(=O)N[C@@H]1COc1nccc2cc(C(N)=O)c(OC)cc12`, the inhibition was -7.2% (ATP-site probe binding, ActivX profiling, item: PKD1, PKD2; THP-1 cell lysate; 0.01 mM, Lys2 site).
The latency change of `C[C@H](Oc1ccc(Br)cc1-c1ccon1)C(=O)O` is reported as -1.27% (muscle velocity recovery cycles; human, tibialis anterior muscle; 400 mg once daily, multiple doses, frequency ramp, last response at 15 Hz; reference: placebo).
`CO[C@H]1CC[C@H](N2C(=O)CNc3ncc(-c4ccc(C(C)(C)O)nc4)nc32)CC1`: “pAKT change from baseline” -57.6% (flow cytometry; stimulated monocytes, human, blood; 45 mg single dose, 3 h, mean; reference: baseline).
Under “systolic blood pressure change”, `COC(=O)CCc1ccc(OCC(O)CNC(C)C)cc1` (stereo not drawn) is recorded as -1.6 mm Hg (healthy male humans; dose not given, 5 min, together with: saline; reference: baseline).
Under “time glucose at most 70 mg/dL”, `OC[C@H]1O[C@@H](c2ccc(F)c(Cc3cc4ccccc4s3)c2)[C@H](O)[C@@H](O)[C@@H]1O` is recorded as -1.04 ± 9.99 % change (continuous glucose monitoring; Japanese type 1 diabetes patients; 50 mg/day, day 14; reference: baseline).
With `C[C@@H](O)CCOC(=O)C[C@@H](C)O` the plasma insulin was 790 pg/mL (human; oral drink, dose not given, 120 min post dose, median, all participants).
